Assay results pooled from the literature.
Each line is one published result; not all experiments were run side by side.
Organism: Streptococcus pneumoniae

Structure (SMILES) | test | test system | setting | MIC
CC(/C=C/C(O)=C1/C(=O)CNC1=O)=C\[C@@H](C)[C@H]1O[C@@]2(C)O[C@H](C(=O)[C@@H]3O[C@@]32CO)[C@@H]1C | – | ATCC 49619 | – | 3.13 µM
c1ccc(CCNC2CCCc3c2[nH]c2ccc(C4CCCCC4)cc32)cc1 (stereo not drawn) | broth microdilution | T4, supplemented C+Y medium | – | 1 µg/mL
CNc1nc(SC)nc2ccccc12 | microbial growth, broth dilution | 1629 | – | > 64 µM
CC[C@H](C)[C@H](N)C1=N[C@H](C(=O)N[C@@H](CC(C)C)C(=O)N[C@H](CCC(=O)O)C(=O)N[C@H](C(=O)N[C@H]2CCCCNC(=O)[C@H](CC(N)=O)NC(=O)[C@@H](CC(=O)O)NC(=O)[C@H](Cc3c[nH]cn3)NC(=O)[C@@H](CC(C)C)NC(=O)[C@H]([C@@H](C)CC)NC(=O)[C@@H](CCCN)NC2=O)[C@@H](C)CC)CS1 | – | 153, TSB with lysed horse blood | 24 h, 37 °C, with: ZnSO4 | > 64 µg/mL
CC(C)[C@H](NC(=O)[C@H](CCCNC(=N)N)NC(=O)[C@H](CCCNC(=N)N)NC(=O)[C@@H](NC(=O)[C@H](C)NC(=O)[C@H](CC(N)=O)NC(=O)[C@H](CCCNC(=N)N)NC(=O)[C@@H](NC(=O)[C@H](CCCNC(=N)N)NC(=O)[C@H](CCCNC(=N)N)NC(=O)[C@@H](NC(=O)[C@@H](NC(=O)[C@H](CCCNC(=N)N)NC(=O)[C@H](CCCNC(=N)N)NC(=O)[C@H](Cc1c[nH]c2ccccc12)NC(=O)[C@H](Cc1c[nH]c2ccccc12)NC(=O)CN)[C@@H](C)O)C(C)C)C(C)C)C(C)C)C(=O)O | – | clinical strain | 18 h, 37 °C | 128 µg/mL
COc1ccc2nc(C)cc(OCC(=O)Nc3cc(C)cc(C)c3)c2c1 | microbial growth, broth dilution | 1629 | – | 64 µM
CC[C@H](C)[C@H](N)C1=N[C@H](C(=O)N[C@@H](Cc2ccccc2)C(=O)N[C@H](CCC(=O)O)C(=O)N[C@H](C(=O)N[C@H]2CCCCNC(=O)[C@H](CC(N)=O)NC(=O)[C@@H](CC(=O)O)NC(=O)[C@H](Cc3c[nH]cn3)NC(=O)[C@@H](Cc3ccccc3)NC(=O)[C@H]([C@@H](C)CC)NC(=O)[C@@H](CCCN)NC2=O)[C@@H](C)CC)CS1 | – | 153, TSB with lysed horse blood | 24 h, 37 °C, with: ZnSO4 | 2 µg/mL
COc1ccc2nc(C)cc(OCC(=O)Nc3ccccc3OC)c2c1 | microbial growth, broth dilution | 1629 | – | 64 µM
CN[C@@H]1[C@H](O)[C@H](NC)[C@H]2O[C@]3(O)[C@H](O[C@@H]2[C@H]1O)O[C@H](C)C[C@@]3(O)CNCc1ccc(F)cc1 | – | Daw27 drug resistant | – | 6 µg/mL
CC[C@H](C)[C@H](N)C1=N[C@H](C(=O)N[C@@H](CC(C)C)C(=O)N[C@H](CCC(=O)O)C(=O)N[C@H](C(=O)N[C@H]2CCCCNC(=O)[C@H](CC(N)=O)NC(=O)[C@@H](CC(=O)O)NC(=O)[C@H](Cc3c[nH]cn3)NC(=O)[C@@H](Cc3ccccc3)NC(=O)[C@H](Cc3ccccc3)NC(=O)[C@@H](CCCN)NC2=O)[C@@H](C)CC)CS1 | – | 153, TSB with lysed horse blood | 24 h, 37 °C, with: ZnSO4 | 16 µg/mL
CN[C@@H]1[C@H](O)[C@H](NC)[C@H]2O[C@]3(O)[C@H](O[C@@H]2[C@H]1O)O[C@H](C)C[C@@]3(O)CNCc1ccccc1 | – | ATCC 700904 drug resistant | – | 13 µg/mL
Cc1cccc(-c2nc(Nc3ccncn3)c3sccc3n2)n1 | microbial growth, broth dilution | 1629 | – | > 64 µM
CN[C@@H]1[C@H](O)[C@H](NC)[C@H]2O[C@]3(O)[C@H](O[C@@H]2[C@H]1O)O[C@H](C)C[C@]3(O)CNCc1ccc(OC(F)(F)F)cc1 | – | R6 | – | > 200 µg/mL
Cc1ccc2nc(C(F)(F)F)c(C(=O)NCc3cccc(Cl)c3)n2c1 | microbial growth, broth dilution | 1629 | – | 64 µM
CC[C@H](C)[C@H](N)C1=N[C@H](C(=O)N[C@@H](CC(C)C)C(=O)N[C@H](CCC(=O)O)C(=O)N[C@@H](Cc2ccccc2)C(=O)N[C@H]2CCCCNC(=O)[C@H](CC(N)=O)NC(=O)[C@@H](CC(=O)O)NC(=O)[C@H](Cc3c[nH]cn3)NC(=O)[C@@H](Cc3ccccc3)NC(=O)[C@H]([C@@H](C)CC)NC(=O)[C@@H](CCCN)NC2=O)CS1 | – | 153, TSB with lysed horse blood | 24 h, 37 °C, with: ZnSO4 | 64 µg/mL

A few entries again:
Structure (SMILES) | test | test system | setting | MIC
Cc1ccc2nc(C(F)(F)F)c(C(=O)NCc3cccc(Cl)c3)n2c1 | microbial growth, broth dilution | 1629 | – | 64 µM
